Experimental data gathered from unrelated publications.
Compare with care: the assays were run in different laboratories.
Effect on: metabolic stability

Structure (SMILES) | test system | conditions | half-life [min]
CONC(=O)c1cccc2c1cc(C)n2-c1nc2c(c(NCc3ccccc3)n1)CCCN2 | mouse, liver microsomes | 1 µM, pH 7.4 | < 10
CC(C)Oc1cc(OCCCCCCCCn2ccnc2)ccc1NC(=N)c1ccccn1 | mouse, liver microsomes | 3 µM | 52 to 68
C[N+]1(CC(=O)OC2CCCCCCCCCCC2)CCSCC1.[I-] | male CD-1 mouse, liver microsomes | 1 µM, pH 7.4 | 4
N=C(Nc1ccc(OCCCCCCCCn2ccnc2)cc1)c1ccccn1 | mouse, liver microsomes | 3 µM | 70
COc1ccc(F)cc1CCC1CCC(CCN)O1 (stereo not shown) | mouse, liver microsomes | 40 µM, pH 7.4 | 56
C[N+]1(CC(=O)OC2CCCCCCCCCCC2)CCCCCC1.[I-] | male CD-1 mouse, liver microsomes | 1 µM, pH 7.4 | 1.8
CC(C)n1ncc2c(C(=O)NC(C)(C)CN)cc(C3CC3)nc21 | mouse, liver microsomes | – | ≥ 70.1
CN1CCN(Cc2ccc(-c3cnc4[nH]cc(-c5cccc(Cl)c5)c4c3)cc2)CC1 | CD-1 mouse, liver microsomes | 20 µM, pH 7.4 | ≥ 30
CC(C)n1ncc2c(C(=O)NCC3(F)CNC3)cc(C3CC3)nc21 | mouse, liver microsomes | – | ≥ 70.1
CC(C)(C)c1ccc(CN(C(=O)CN(C2CC2)S(=O)(=O)c2c(F)c(F)cc(F)c2F)c2ccc(C(=O)O)cc2)cc1 | male CD-1 mouse, hepatocytes | – | 38.6
N#C[C@@]1(c2ccc3c(N)ncnn23)O[C@H](CO)[C@@H](O)[C@H]1O | CD-1 mouse, liver microsomes | 1 µM, pH 7.4 | 842
CC1(C)CC[N+](C)(CC(=O)OC2CCCCCCCCCCC2)CC1.[I-] | male CD-1 mouse, liver microsomes | 1 µM, pH 7.4 | 2.6
OCCN1CCN(Cc2ccc(-c3cnc4[nH]cc(-c5cccc(Cl)c5)c4c3)cc2)CC1 | CD-1 mouse, liver microsomes | 20 µM, pH 7.4 | > 120

Excerpt of the above:
Structure (SMILES) | test system | conditions | half-life [min]
C[N+]1(CC(=O)OC2CCCCCCCCCCC2)CCSCC1.[I-] | male CD-1 mouse, liver microsomes | 1 µM, pH 7.4 | 4
